Measurements of several laboratories.
Several values in a cell are separate wells, animals, samples, runs or records. ± marks the error that the study gave.

`Nc1ncc(-c2nc(N3CCOCC3)nc(N3CCOCC3)n2)c(C(F)F)n1` gave a GI50 of 0.042 µM (AN3-CA; cell growth; 72 h).
For `COc1c(CCC[P+](c2ccccc2)(c2ccccc2)c2ccccc2)cc2c(c1OC)OCO2.[I-]`, the TGI was -4.72 log M (M14; SRB).
For `CC(c1ccccc1)(c1ccc(O)cc1)c1ccc(O)cc1`, “G2 phase cells” read 19.3 ± 4.07% (HepG2 spheroids; Hoechst flow cytometry; 40 µM, 24 h).
For `CC(C)N1CCC(NC2CCN(c3cccc(-c4cc5cc(F)ccc5[nH]4)c3)CC2)CC1`, the CC50 was 6.43 µM (M14).
For `Oc1ccc(C2(c3ccc(O)cc3)c3ccccc3-c3ccccc32)cc1`, “cell cycle distribution” read “no effect” (HepG2 spheroids; flow cytometry; concentration not given, 96 h).
For `Cn1cc2cc(C(F)(F)c3nnc4ccc(-c5cnn(C6CC6)c5)nn34)c(F)cc2n1`, “G0/G1 phase cells” read ~90.6% (MKN-45; PI flow cytometry; 200 nM, 24 h).
For `C=C1CC[C@@H]2[C@](C)(CCC[C@]2(C)C(=O)O)[C@H]1CC/C(C)=C/CO`, PARP cleavage read “increased” (neuroblastoma M2 (+); western blot; IC50; baseline: untreated).
With `Cc1sc2c(c1C)C(c1ccc(Cl)cc1)=N[C@@H](CC(N)=O)c1nnc(C)n1-2` the viability was 22.7% (OCI-Ly1; 0.5 µM, 120 h).
For `CC#C[C@]1(O)CC[C@H]2[C@@H]3CCC4=CC(=O)CCC4=C3[C@@H](c3ccc(N(C)C)cc3)C[C@@]21C`, inhibition read “inhibited” (zebrafish AB.9 GRE:Luc cells; glucocorticoid reporter gene, antagonist; 5 nM, together with: 10 nM dexamethasone).
Under “normalized enrichment score”, `C/C=C(/C)C(=O)O[C@H]1C(C)=C2[C@H]([C@@H]1OC(=O)CCCCCCC)[C@@](C)(OC(C)=O)C[C@H](OC(=O)CCC)[C@@]1(O)[C@H]2OC(=O)[C@@]1(C)O` is recorded as -0.992 (HEK-293T; RNA-seq GSEA, item: Hallmark bile acid metabolism; 500 nM, 6 h; direction not given).
For `O=C1CCP(=S)(c2ccccc2)CC1`, “early apoptotic cells” read 2.9% (HCT-116; annexin V/PI flow cytometry; IC50, 72 h).
`CN1CCN(C2(CNC3CCN(c4cccc(-c5cc6cc(F)ccc6[nH]5)c4)CC3)CCC2)CC1` gave a GI50 of 1.64 µM (OVCAR-3).
Under “pathway fold enrichment”, `Nc1ncnc2c1ncn2[C@@H]1O[C@@H]2COP(=O)(O)O[C@H]3[C@@H](O)[C@H](n4cnc5c(=O)[nH]cnc54)O[C@@H]3COP(=O)(O)O[C@H]2[C@H]1O` is recorded as 6.2 (HFF-1; RNA sequencing Reactome analysis, item: Reactome R-HSA-3000178 ECM proteoglycans; together with: West Nile virus infection; baseline: West Nile virus infected cells, downregulated pathway).
With `Cn1nccc1Nc1nccc(-c2ccn([C@H](CO)c3ccc(Cl)c(F)c3)c(=O)c2)n1` the PI-positive cells was 9.83 count and 12.2 count and 15.4 count (HCT116; IncuCyte; concentration not given, 40 (unit not given)).
With `COc1c(C)c2c(c(O)c1C/C=C(\C)CCC(=O)O)C(=O)OC2` the IC50 was 0.331 µM (Connective cancer cell lines; cell proliferation).
For `COc1cc(CCC[P+](c2ccccc2)(c2ccccc2)c2ccccc2)c(OC)c2c1OCO2.[I-]`, the LC50 was > -4 log M (UACC-257; SRB).
`CCN(CC)c1ccc(C=NNC(=O)CSc2nc3ccccc3c(=O)n2Cc2ccc(S(N)(=O)=O)cc2)c(O)c1` has a CC50 of > 100 µM (OVCAR-3; NCI five-dose screen).
The surviving fraction of `Nc1nc2nc[nH]c2c(=S)[nH]1` is reported as 0.53 (HCT-116 3-6; clonogenic; 1.25 µM, 10 days).

Some of these lines once more:
Under “pathway fold enrichment”, `Nc1ncnc2c1ncn2[C@@H]1O[C@@H]2COP(=O)(O)O[C@H]3[C@@H](O)[C@H](n4cnc5c(=O)[nH]cnc54)O[C@@H]3COP(=O)(O)O[C@H]2[C@H]1O` is recorded as 6.2 (HFF-1; RNA sequencing Reactome analysis, item: Reactome R-HSA-3000178 ECM proteoglycans; together with: West Nile virus infection; baseline: West Nile virus infected cells, downregulated pathway).
For `Cn1cc2cc(C(F)(F)c3nnc4ccc(-c5cnn(C6CC6)c5)nn34)c(F)cc2n1`, “G0/G1 phase cells” read ~90.6% (MKN-45; PI flow cytometry; 200 nM, 24 h).
